Experimental data pooled from the literature.
Several values in a cell are separate wells, animals, samples, runs or records. ± marks the error that the study gave.

SMILES | tested on | assay | system | conditions | scale | measurement | result
O=C(COCC(F)F)Nc1ccc(C2CCCCC2)cc1 | – | liver microsome stability | dog liver microsomes | 1 µM | – | hepatic clearance | 29 mL/min/kg
O=C(N[C@H](Cc1c[nH]c2ccccc12)C(=O)Nc1ccncc1)c1ccc(-c2cc(C(F)(F)F)ccc2F)cc1F | – | – | Swiss Webster mouse, female, liver | oral, 50 mg/kg, 8 h, 20% HPβCD vehicle | – | concentration | 5.88 µM
O=[N+]([O-])c1ccc(-c2ccc(O)cc2)c2cccnc12 | – | – | ICR mice male, plasma | intravenous, 1 mg/kg | – | Vdss | 0.8 L/kg
COc1cc(N2CCC(N3CCN(C)CC3)CC2)ccc1Nc1ncnc(Nc2ccccc2S(=O)(=O)C(C)C)n1 | – | – | human, plasma | oral, 325 mg, day 28 | – | Cmax | 1340 ng/mL
Cc1cc(-c2nccc3c2ccn3CC(=O)Nc2ccc(-c3cnccn3)cn2)ccn1 | – | – | human | 20 mg once daily, multiple ascending dose | – | subjects with contact dermatitis | 0%
O=C(Nc1cnccc1Cl)N1CCN(Cc2ccc3c(c2)OC(F)(F)O3)CC1 | – | multiple ascending dose | young men | 10 mg, treatment-emergent adverse events | – | hepatic enzyme increased | 0%
CC(C)(C(=O)N1CCOc2c(C#N)cncc2C1)C(F)F | – | item: blood creatine phosphokinase increased | healthy humans, both sexes | oral, 40 mg single dose | – | subjects with TEAE | 0%
CCN1/C(=C/C(C)=O)Sc2ccc(F)cc21 | – | – | cynomolgus monkey | oral, 10 mg/kg, 24 h post-dose | reference: pre-dose | PR interval change | 99.8 ± 4.4%
CCO[C@H]1CCN(Cc2c(OC)cc(C)c3[nH]ccc23)[C@H](c2ccc(C(=O)O)cc2)C1 | – | – | human severe hepatic impairment, plasma | oral, 200 mg single dose, geometric mean | – | unbound half-life | 18.4 h
C[C@@H](N)C1CCN(S(=O)(=O)c2cccc3cnccc23)CC1 | – | – | healthy volunteers | 150 mg, fasted | – | participants with serious TEAEs | 0%
CN(Cc1cccnc1)C(=O)c1ccc(C2CCCCC2)cc1 | – | liver microsome stability | rat liver microsomes | 1 µM | – | hepatic clearance | 52 mL/min/kg
CCN1CCN(Cc2ccc(NC(=O)c3ccc(C)c(NC(=O)c4cncc(-c5cccs5)c4)c3)cc2C(F)(F)F)CC1 | – | LC-MS/MS | C57BL/6 mouse, plasma | intraperitoneal, 30 mg/kg single dose, 2 h | – | mean plasma concentration | 496 ng/mL
CC(C)NCCCC[C@@H]1NC(=O)[C@H](Cc2ccc(O)cc2)NC(=O)[C@H](Cc2ccccc2)NC(=O)CC[C@H](C(=O)N[C@@H](CCCCNC(C)C)C(=O)N[C@@H](CCCCNC(=O)[C@H](CCC(=O)O)NC(=O)[C@H](CCC(=O)O)NC(=O)[C@H](CCC(=O)O)NC(=O)CN2CCN(CC(=O)O)CCN(CC(=O)O)CCN(CC(=O)O)CC2)C(N)=O)NC(=O)CNC(=O)[C@H](Cc2ccc3ccccc3c2)NC(=O)[C@@H](CCCNC(=N)N)NC1=O [gallium-68 labelled] | – | – | mouse with Daudi xenograft, testes | intravenous, 1 h | – | tissue uptake | 0.12 %ID/g
O=c1oc(=O)n(Cc2cc(C(F)(F)F)cc(C(F)(F)F)c2)c2ccccc12 | – | chemical stability, HPLC-MS | borate buffered saline | pH 10.2, no N-acetyl-lysine | – | degradation rate constant | 26.5 h⁻¹
CN1CCN(C(=O)c2ccc(C3CCCCC3)cc2)CC1 | – | liver microsome stability | dog liver microsomes | 1 µM | – | hepatic clearance | 30 mL/min/kg
C=CC[C@@H]1/C=C(\C)C[C@H](C)C[C@H](OC)[C@H]2O[C@@](O)(C(=O)C(=O)N3CCCC[C@H]3C(=O)O[C@H](/C(C)=C/[C@@H]3CC[C@@H](O)[C@H](OC)C3)[C@H](C)[C@@H](O)CC1=O)[C@H](C)C[C@@H]2OC | – | – | Wistar Kyoto rat, male, plasma | ip, 0.5 mg/kg/day, day 28, at sacrifice | – | plasma K+ level | 4.8 ± 0.4 mmol/L
CCOc1c([C@H](C)n2nc(C)c3c(N)ncnc32)cc(Cl)c(F)c1[C@@H]1CNC(=O)C1 | – | – | rat plasma | 1600 ng/mL, 3 weeks, -80 °C, frozen storage | reference: nominal concentration | stability relative error | 10.1%
Nc1nc2c(nc([N+](=O)[O-])n2[C@@H]2O[C@H](CO)[C@@H](O)[C@H]2O)c(=O)[nH]1 | – | depurination, RP-HPLC | citrate-phosphate buffer 0.5 mM | 145 min, pH 5, 37 °C | – | nucleoside remaining fraction | 0.838
COc1ccc([C@@H](O)c2cc(-c3ncnc4cc(N5CCOCC5)ccc34)c(F)cc2Cl)nn1 | – | – | locally advanced rectal cancer patients | 250 mg, with: capecitabine and radiotherapy | – | drug-related gastrointestinal AE | 83%
OC[C@H]1O[C@@H](c2ccc(F)c(Cc3cc4ccccc4s3)c2)[C@H](O)[C@@H](O)[C@@H]1O | – | – | Japanese type 1 diabetes patients | oral, 100 mg/day, day 2 | – | hypoglycaemia adverse events | 6 % patients
O=C(O)CCC(=O)O.[2H]C([2H])([2H])Oc1cc(C)c2[nH]ccc2c1CN1CC[C@@H](C2CC2)C[C@H]1c1ccc(C(=O)O)cc1 | – | – | healthy Chinese subjects | 100 mg, single ascending dose | – | TEAE decreased fibrinogen | 0%
Cc1ccc(C(=O)N(CCCN)C(c2nc3snc(C)c3c(=O)n2Cc2ccccc2)C(C)C)cc1 (centres unmarked) | – | mucosal inflammation grade ≥3 (CTCAE) | human patients | intravenous, 18 mg/day | – | patients with adverse event | 0%
Cc1nc(-c2ccc(OCC(C)C)c(C#N)c2)sc1C(=O)O | – | – | KM mouse, chronic hyperuricaemia model | dose not given, day 14 | – | body weight | 35.4 g and 29.5 g and 34.9 g and 31.3 g and 32.1 g and 38.4 g
Cc1ccc([C@@H]2O[C@H](CO)[C@@H](O)[C@H](O)[C@H]2O)cc1Cc1ccc(-c2ccc(F)cc2)s1 | – | – | Japanese type 2 diabetes patients | 25 mg, day 15, 24 h urine collection | reference: baseline | urinary potassium excretion change | 0.091 mEq

SMILES | tested on | assay | system | conditions | scale | measurement | result
NC1(C(=O)N[C@@H](CCO)c2ccc(Cl)cc2)CCN(c2nc[nH]c3nccc2-3)CC1 | – | – | metastatic CRPC patients | 480 mg b.i.d., any grade, treatment-related, with: enzalutamide 160 mg daily | – | incidence of weight decreased | 20%
O=C(Nc1ccc(Cl)cc1)Nc1ccc(Cl)c(Cl)c1 | – | – | whole cow milk | 2000 nM nominal | – | dose fraction in milk fat | 85.8%
Cn1cc(C(N)=O)ccc1=O | – | ultrafiltration | normal rat serum | 37 °C | – | serum protein binding | 70 ± 9%
CCOc1c([C@H](C)n2nc(C)c3c(N)ncnc32)cc(Cl)c(F)c1[C@@H]1CNC(=O)C1 | – | item: QTcF change ≤30 ms | previously treated B-cell malignancy | oral, 5 mg once daily, overall population | reference: baseline | ECG observations | 60%
C[C@H]1O[C@@H](O[C@H]2[C@@H](O)C[C@H](O[C@H]3[C@@H](O)C[C@H](O[C@H]4CC[C@@]5(C)[C@H](CC[C@@H]6[C@@H]5C[C@@H](O)[C@]5(C)[C@@H](C7=CC(=O)OC7)CC[C@]65O)C4)O[C@@H]3C)O[C@@H]2C)C[C@H](O)[C@@H]1O | – | item: gastrointestinal disorders | healthy men | oral, dose not given, 8 days, treatment-emergent, crossover trial | – | subjects with adverse event | 0%
NS(=O)(=O)c1cccc(-c2ccc(C3CCCCC3)cc2)c1 | – | hepatocyte stability | cryopreserved mouse hepatocytes | 1 µM | – | hepatic clearance | 42 mL/min/kg
Cn1ncnc1[C@H]1c2n[nH]c(=O)c3cc(F)cc(c23)N[C@@H]1c1ccc(F)cc1 | – | – | human patients, plasma | oral, 400 µg/m2, median | – | AUC(0-τ) | 140 ng·h/mL
O=C(Nc1nc2cccc(-c3ccc(CN4CCS(=O)(=O)CC4)cc3)n2n1)C1CC1 | – | item: pharyngitis | human rheumatoid arthritis patients | oral, 75 mg once daily, 4 weeks, regardless of relatedness | – | treatment-emergent adverse events | 0%
CC(=O)O[C@H]1C(=O)[C@@]2(C)[C@H]([C@H](OC(=O)c3ccccc3)[C@]3(O)C[C@H](OC(=O)[C@H](O)[C@@H](NC(=O)c4ccccc4)c4ccccc4)C(C)=C1C3(C)C)[C@]1(OC(C)=O)CO[C@@H]1C[C@@H]2O | – | item: peripheral oedema | patients with advanced solid tumours | intravenous, dose not given, grade 3 and 4, possibly related to drug | – | adverse event incidence | 0%
Cn1cc(-c2ccc(-c3cncc(Cl)c3N3CCC4(CCNC4=O)CC3)cc2)cn1 | COLO 205 | gene expression, microarray, item: TTLL5 mRNA | – | concentration not given, 2 h | reference: untreated cells | log2 fold change | -2.29
C[C@@H](Oc1ccc(S(C)(=O)=O)cc1C(=O)N1C[C@@H]2C[C@]2(c2cc(C(F)(F)F)on2)C1)C(F)(F)F | – | radioprofiling | human, plasma | oral, 25 mg, mean | – | AUC(0-168 h) | 14.2 µM·h
Cc1noc(C)c1-c1cc(C(O)(c2ccccn2)c2ccccn2)c2nc(C3CC3)[nH]c2c1 | – | – | human patients, fasted, plasma | oral, 6 mg once daily, cycle 1 day 8 | – | Ctau | 70.9 ng/mL
COc1ccnc(C(=O)NC(CO)C(=O)O)c1O (racemic) | – | soil adsorption | soil | pH 6.9, organic carbon 0.8 % | – | KFoc | 737 mL/g
CCc1c(-c2ccccc2)c(-c2ccccc2)nn1-c1ccccc1-c1cccc(OCC(=O)O)c1 | – | – | Sprague-Dawley rat, -Brain homogenate | oral, 10 mg/kg, 4 h | – | concentration | 19.4 ng/mL and 9.77 ng/mL
C=CC(=O)Nc1cc(Nc2nccc(-c3cn(C4CC4)c4ccccc34)n2)c(OC)cc1N(C)CCN(C)C | – | bench-top stability | rat plasma | 40 ng/mL, 3 h, room temperature | reference: nominal concentration | relative error | -8.3%
CNC(=O)c1ccc(-c2cnc3ncc(Cc4ccc5ncccc5c4)n3n2)cc1F | – | item: Insomnia, all grades | gastric cancer patients | oral, 600 mg twice daily, expansion cohort, any causality | – | patients with adverse event | 22%
O=C(NCC1CCOCC1)c1ccc(C2CCCCC2)cc1 | – | liver microsome stability | dog liver microsomes | 1 µM | – | hepatic clearance | 27 mL/min/kg
CCC(C)n1ncn(-c2ccc(N3CCN(c4ccc(OCC5COC(Cn6cncn6)(c6ccc(Cl)cc6Cl)O5)cc4)CC3)cc2)c1=O (centres unmarked) | – | – | human, plasma | oral, dose not given, day 11 predose, mean | – | trough plasma concentration | 34.9 ng/mL
COCCN(C)C(=O)c1ccc([C@H]2[C@@H](F)[C@@H](F)C[C@@H](F)[C@H]2F)cc1 | – | hepatocyte stability | cryopreserved human hepatocytes | 1 µM | – | hepatic clearance | 6.5 mL/min/kg
CC(C)C[C@@H]1NC(=O)[C@H](CCCCN)NC(=O)[C@H](CC(N)=O)NC(=O)[C@H](CCCNC(=N)N)NC(=O)[C@H]([C@@H](C)O)NC(=O)[C@@H]2CSSC[C@@H]3NC(=O)[C@H]([C@@H](C)O)NC(=O)CNC(=O)CNC(=O)[C@H](C(C)C)NC(=O)[C@@H]4CSSC[C@H](NC(=O)[C@H](CCCCN)NC(=O)[C@H](CSSC[C@H](NC(=O)[C@H](C(C)C)NC(=O)[C@@H]5CCCN5C1=O)C(=O)NCC(=O)N[C@@H](CCC(=O)O)C(=O)N[C@@H]([C@@H](C)O)C(=O)N4)NC(=O)CNC(=O)[C@@H]1CCCN1C(=O)[C@H]([C@@H](C)O)NC(=O)[C@H](CC(N)=O)NC3=O)C(=O)N[C@@H](CO)C(=O)N[C@@H](Cc1c[nH]c3ccccc13)C(=O)N1CCC[C@H]1C(=O)N[C@@H](C(C)C)C(=O)N2 | – | HPLC | water | 180 µM, 14 days, 37 °C, deamidation stability | – | remaining peptide | 98.3 ± 0.5%
CN(C)CCC(=O)Nc1ccc(C2CCCCC2)cc1 | – | liver microsome stability | cynomolgus liver microsomes | 1 µM | – | hepatic clearance | 35 mL/min/kg
C=CCn1c(=O)c2cnc(Nc3ccc(N4CCN(C)CC4)cc3)nc2n1-c1cccc(C(C)(C)O)n1 | – | – | human patients | oral, 250 mg once daily, day 17, cycle 1, with: durvalumab 1500 mg iv | – | AUC(0-10 h) | 6.39 µM·h
CN1C(=O)[C@@H](NC(=O)c2nnc(Cc3ccccc3)[nH]2)COc2cccnc21 | – | – | healthy human, fasted, plasma | oral, 100 mg single dose, median | – | Tmax | 3.5 h

Repeated from above:
SMILES | tested on | assay | system | conditions | scale | measurement | result
CCO[C@H]1CCN(Cc2c(OC)cc(C)c3[nH]ccc23)[C@H](c2ccc(C(=O)O)cc2)C1 | – | – | human severe hepatic impairment, plasma | oral, 200 mg single dose, geometric mean | – | unbound half-life | 18.4 h
C[C@@H](N)C1CCN(S(=O)(=O)c2cccc3cnccc23)CC1 | – | – | healthy volunteers | 150 mg, fasted | – | participants with serious TEAEs | 0%
CN(Cc1cccnc1)C(=O)c1ccc(C2CCCCC2)cc1 | – | liver microsome stability | rat liver microsomes | 1 µM | – | hepatic clearance | 52 mL/min/kg
